Published values from different studies.
Numbers after ± are the reported error.
Cell line: RAW264.7

Structure (SMILES) | assay | setting | IC50
CN(C)C1CCN(c2nc3oc4ccccc4c(=O)c3s2)CC1 | IL-1β release, inhibitor, ELISA | 48 h, LPS-stimulated | 8.19 µM
COc1ccc(CCNC(=O)/C=C/c2ccc(O)c(O)c2)cc1OC | NO release, inhibitor, Griess | 24 h, LPS-stimulated | 5.58 µM
CC(C)C1=C(O)C(=O)C2=C(C=C[C@H]3C(C)(C)CCC[C@]23C)C1=O | NO release, inhibitor | 24 h, LPS-stimulated | > 159 µM
CCCc1c(-c2ccc(O)cc2)nn(-c2ccc(O)cc2)c1-c1ccc(OCCN2CCCCC2)cc1 | cell growth or viability, resazurin |  | 29.3 µM
CC(C)=CCc1c2c(c(O)c3c(=O)c(-c4ccc(O)cc4)coc13)CC(C(C)(C)O)O2 (centres unmarked) | cell growth or viability, MTT |  | 31.4 µM
CC1=C(C)C(=O)O[C@@H]([C@@H](C)C2=C[C@H](O)[C@]3(O)[C@@H]4C[C@@H](O)[C@@]5(O)CC=CC(=O)[C@]5(C)[C@H]4CC[C@]23C)C1 | NO release, inhibitor, Griess | LPS-stimulated | 34.4 µM
COc1ccc2c3c(oc2c1CC=C(C)C)-c1cc(CC=C(C)C)c(O)cc1OC3 | nitric oxide production | up to 100 µM, added: LPS | inactive
O=c1c2cc(Cl)cc(Cl)c2oc2nc(N3CCCCC3)sc12 | IL-1β release, inhibitor, ELISA | 48 h, LPS-stimulated | 22.2 µM
CC(=O)O[C@H]1C=C([C@H](C)[C@H]2CC(C)=C(C)C(=O)O2)[C@@]2(C)CC[C@H]3[C@@H](C[C@@H](O)[C@@]4(O)CC=CC(=O)[C@]34C)[C@]12O | NO release, inhibitor, Griess | LPS-stimulated | 31.2 µM
CC(C)C1=C(OC(=O)CCc2ccccc2)C(=O)C2=C(C=C[C@H]3C(C)(C)CCC[C@]23C)C1=O | NO release, inhibitor | 24 h, LPS-stimulated | 3.48 µM
CC/C=C\C/C=C\C/C=C\CCCCCCCC(=O)OC[C@H](CO[C@@H]1O[C@H](CO)[C@H](O)[C@H](O)[C@H]1O)OC(=O)CCCCCCC/C=C\C/C=C\C/C=C\CC | NO release, inhibitor, Griess | 20 h, LPS-stimulated | 7.7 µM
COc1cc2c(cc1O)[C@]1(O)C(=O)c3c(O)cc4c(c3O[C@@H]1CO2)C=CC(C)(C)O4 | cell growth or viability, MTT |  | 45.3 µM
CC(C)=CCc1c(O)ccc2c1O[C@H]1c3cc4c(cc3OC[C@@H]21)OC(C)(C)C=C4 | nitric oxide production | up to 100 µM, added: LPS | inactive
CCOC(=O)c1csc2nc(-c3cccc(NC(=O)c4cc5cc(NC(=O)C(C)Cl)ccc5n4Cc4ccc(C(F)(F)F)cc4)c3)cn12 (centres unmarked) | IL-6 release, inhibitor, ELISA | 24 h, LPS-stimulated | 2.29 µM
O=C(CCc1ccc(O)c(O)c1)NCCc1ccccc1 | NO release, inhibitor, Griess | 24 h, LPS-stimulated | > 5 µM
CCC(=O)NCc1ccccc1 | PGE2 release, inhibitor, ELISA | 24 h, LPS-stimulated | > 200 µM
C[C@@H]1C(=O)CC[C@@H]2[C@]1(C)CC[C@H]1[C@@]2(C)CC[C@@]2(C)[C@@H]3CC(C)(C)CC[C@]3(C)CC[C@]12C | NO release, inhibitor, Griess | LPS-stimulated | > 100 µM
COC(=O)C1=COC(OC2OC(CO)C(O)C(O)C2O)C2C1C(OC(C)=O)CC2(C)O (centres unmarked) | NO release, inhibitor, Griess | LPS-stimulated | 7.6 µM

Structure (SMILES) | assay | setting | IC50
CCCCn1cc(C(=O)O)c(=O)c2cc(F)c(N)c([N+](=O)[O-])c21 | NO release, inhibitor, Griess | LPS-stimulated | 71.2 µM
CC(C)=CCc1cc(-c2coc3cc(O)c(CC=C(C)C)c(O)c3c2=O)ccc1O | nitric oxide production | up to 100 µM, added: LPS | inactive
C=CC(=O)Nc1ccc2c(c1)cc(C(=O)Nc1cccc(-c3cn4c(C(=O)OCC)csc4n3)c1)n2Cc1ccc(C(F)(F)F)cc1 | IL-6 release, inhibitor, ELISA | 24 h, LPS-stimulated | 1.44 µM
CCCCC/C=C\C/C=C\CCCCCCCC(=O)OC[C@H](CO[C@@H]1O[C@H](CO)[C@H](O)[C@H](O)[C@H]1O)OC(=O)CCCCCCC/C=C\C/C=C\CCCCC | NO release, inhibitor, Griess | 20 h, LPS-stimulated | 8 µM
CCc1c(-c2ccc(O)cc2)nn(-c2ccc(O)cc2)c1-c1ccc(OCCN2CCCCC2)cc1 | cell growth or viability, resazurin |  | 3.89 µM
CCCCn1cc(C(=O)O)c(=O)c2cc(F)c3[nH]nnc3c21 | NO release, inhibitor, Griess | LPS-stimulated | 2160 µM
CCOC(=O)c1csc2nc(-c3cccc(NC(=O)c4cc5cc(NC(=O)c6ccco6)ccc5n4Cc4ccc(C(F)(F)F)cc4)c3)cn12 | TNF-α release, inhibitor, ELISA | 24 h, LPS-stimulated | 22 µM
CC(=O)O[C@H]1CC[C@]2(C)[C@H]3CC=C4[C@@H]5CC(C)(C)CC[C@]5(CO)CC[C@@]4(C)[C@]3(C)CC[C@H]2C1(C)C | NO release, inhibitor, Griess | LPS-stimulated | > 100 µM
CC(C)=CCc1cc([C@@H]2CC(=O)c3c(O)cc(O)c(CC=C(C)C)c3O2)cc(CC=C(C)C)c1O | nitric oxide production | up to 100 µM, added: LPS | inactive
CC1C(O)CC2(CO)CCC3(C)C(=CCC4C(C)(CCC(=O)O)C(C(C)(O)CO)CCC43C)C2C1C (centres unmarked) | NO production, Griess | 24 h, pre-treatment before HMGB1, added: HMGB1 0.5 µg/mL | 47.2 ± 7.62 µM
CCc1c(-c2ccc(O)cc2)nn(-c2ccc(O)cc2)c1-c1ccc(OCCN2CCCCC2)cc1 | TNF-alpha production, inhibitor | added: CpG-DNA | 2.84 ± 0.12 µM
CC(C)=CCc1cc2c(cc1O)OCc1c-2oc2c(CC=C(C)C)c(O)ccc12 | nitric oxide production | up to 100 µM, added: LPS | inactive
CCn1cc(/C=C/c2ccc3ccccc3[n+]2CC)c2ccccc21 | cell growth or viability, MTT | 24 h | 5.18 µM
COc1c(CC=C(C)C)c(O)cc2c1-c1oc3c(CC=C(C)C)c(O)ccc3c1CO2 | nitric oxide production | up to 100 µM, added: LPS | inactive
CCN(CC)c1nc2oc3ccccc3c(=O)c2s1 | IL-1β release, inhibitor, ELISA | 48 h, LPS-stimulated | 17 µM
CC[C@@]1(C)CC[C@H]2[C@@](C)(CC[C@@]3(C)[C@@H]4CC(C)(C)CC[C@]4(C)CC[C@]23C)[C@@H]1CCC(=O)O | NO release, inhibitor, Griess | LPS-stimulated | 71.9 µM
COc1ccc(-c2coc3c(CC=C(C)C)c(O)c(CC=C(C)C)c(O)c3c2=O)cc1O | cell growth or viability, MTT |  | 57.6 µM

A few entries again:
Structure (SMILES) | assay | setting | IC50
COc1c(CC=C(C)C)c(O)cc2c1-c1oc3c(CC=C(C)C)c(O)ccc3c1CO2 | nitric oxide production | up to 100 µM, added: LPS | inactive
CCN(CC)c1nc2oc3ccccc3c(=O)c2s1 | IL-1β release, inhibitor, ELISA | 48 h, LPS-stimulated | 17 µM
